Published values collected from several papers.
± gives the spread as reported.
Melanocortin receptor 5: Melanocortin receptor 5 (Mus musculus, UniProt P41149)
Sequence of UniProt P41149 (whole entry, looked up): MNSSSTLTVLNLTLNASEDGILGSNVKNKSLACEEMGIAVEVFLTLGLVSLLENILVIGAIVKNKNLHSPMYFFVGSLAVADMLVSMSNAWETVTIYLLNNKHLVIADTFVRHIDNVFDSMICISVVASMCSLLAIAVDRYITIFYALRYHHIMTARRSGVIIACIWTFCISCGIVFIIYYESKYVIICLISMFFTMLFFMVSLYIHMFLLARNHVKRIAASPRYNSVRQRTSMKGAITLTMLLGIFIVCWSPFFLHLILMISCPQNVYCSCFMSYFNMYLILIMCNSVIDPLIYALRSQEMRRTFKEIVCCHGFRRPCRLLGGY
ESRRG: Estrogen-related receptor gamma (ESRRG, Homo sapiens, UniProt P62508)
Sequence of UniProt P62508 (whole entry, looked up): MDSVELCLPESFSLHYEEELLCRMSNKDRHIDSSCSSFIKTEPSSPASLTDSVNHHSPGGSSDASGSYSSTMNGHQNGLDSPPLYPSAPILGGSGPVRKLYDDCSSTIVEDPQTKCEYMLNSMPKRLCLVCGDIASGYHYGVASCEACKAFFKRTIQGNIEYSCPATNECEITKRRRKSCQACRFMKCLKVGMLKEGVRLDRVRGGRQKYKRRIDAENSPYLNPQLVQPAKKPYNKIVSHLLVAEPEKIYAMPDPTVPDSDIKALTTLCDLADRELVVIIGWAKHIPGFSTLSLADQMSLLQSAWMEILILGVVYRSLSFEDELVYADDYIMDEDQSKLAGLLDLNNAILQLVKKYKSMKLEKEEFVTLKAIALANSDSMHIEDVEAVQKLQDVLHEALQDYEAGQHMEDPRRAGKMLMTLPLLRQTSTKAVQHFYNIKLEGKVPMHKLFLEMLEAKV
Sequence of UniProt Q9Y5Z9 (whole entry, unmodified, looked up): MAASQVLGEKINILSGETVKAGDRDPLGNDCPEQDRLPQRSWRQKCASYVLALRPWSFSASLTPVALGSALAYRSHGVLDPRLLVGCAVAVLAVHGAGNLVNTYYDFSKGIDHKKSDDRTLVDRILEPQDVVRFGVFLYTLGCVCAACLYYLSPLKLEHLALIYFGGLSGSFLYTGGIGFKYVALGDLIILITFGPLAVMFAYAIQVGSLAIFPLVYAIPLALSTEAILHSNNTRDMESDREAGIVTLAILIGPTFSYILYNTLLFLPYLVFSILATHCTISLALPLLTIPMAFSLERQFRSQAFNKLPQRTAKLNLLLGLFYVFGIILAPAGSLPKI
Sequence of UniProt P56726 (whole entry, unmodified, looked up): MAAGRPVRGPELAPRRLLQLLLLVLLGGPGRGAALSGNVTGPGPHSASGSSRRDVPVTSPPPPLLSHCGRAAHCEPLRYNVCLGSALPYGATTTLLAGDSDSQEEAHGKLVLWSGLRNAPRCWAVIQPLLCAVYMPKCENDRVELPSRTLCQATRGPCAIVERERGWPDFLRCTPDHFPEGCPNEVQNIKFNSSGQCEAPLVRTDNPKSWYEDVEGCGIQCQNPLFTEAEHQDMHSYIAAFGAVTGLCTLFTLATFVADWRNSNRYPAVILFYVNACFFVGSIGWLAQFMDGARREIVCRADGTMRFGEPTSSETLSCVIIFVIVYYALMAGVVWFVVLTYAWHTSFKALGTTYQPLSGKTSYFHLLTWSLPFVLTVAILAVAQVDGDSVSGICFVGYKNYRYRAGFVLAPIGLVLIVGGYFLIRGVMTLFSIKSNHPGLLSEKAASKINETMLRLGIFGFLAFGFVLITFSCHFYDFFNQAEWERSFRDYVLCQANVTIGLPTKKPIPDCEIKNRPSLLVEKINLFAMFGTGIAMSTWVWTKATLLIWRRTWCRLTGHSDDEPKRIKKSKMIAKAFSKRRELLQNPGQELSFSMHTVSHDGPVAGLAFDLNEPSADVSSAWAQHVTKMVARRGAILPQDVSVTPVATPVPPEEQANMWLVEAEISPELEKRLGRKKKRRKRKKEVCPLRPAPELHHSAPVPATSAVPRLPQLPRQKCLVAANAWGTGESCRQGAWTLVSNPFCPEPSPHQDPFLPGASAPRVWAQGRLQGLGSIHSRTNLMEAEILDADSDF
Sequence of UniProt Q9NNX6 (whole entry, looked up): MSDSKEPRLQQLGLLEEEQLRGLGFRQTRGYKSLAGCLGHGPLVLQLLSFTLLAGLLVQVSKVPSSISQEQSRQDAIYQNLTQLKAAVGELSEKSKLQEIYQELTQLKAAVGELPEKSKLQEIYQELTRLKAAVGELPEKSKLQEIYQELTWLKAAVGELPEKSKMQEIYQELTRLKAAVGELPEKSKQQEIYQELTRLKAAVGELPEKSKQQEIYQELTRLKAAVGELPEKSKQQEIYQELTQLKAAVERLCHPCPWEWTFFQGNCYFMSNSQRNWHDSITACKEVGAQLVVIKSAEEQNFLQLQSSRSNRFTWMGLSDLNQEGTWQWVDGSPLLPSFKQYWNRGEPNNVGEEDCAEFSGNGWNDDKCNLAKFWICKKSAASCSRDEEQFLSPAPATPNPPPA
Sequence of UniProt Q9Z1M0 (whole entry, unmodified, looked up): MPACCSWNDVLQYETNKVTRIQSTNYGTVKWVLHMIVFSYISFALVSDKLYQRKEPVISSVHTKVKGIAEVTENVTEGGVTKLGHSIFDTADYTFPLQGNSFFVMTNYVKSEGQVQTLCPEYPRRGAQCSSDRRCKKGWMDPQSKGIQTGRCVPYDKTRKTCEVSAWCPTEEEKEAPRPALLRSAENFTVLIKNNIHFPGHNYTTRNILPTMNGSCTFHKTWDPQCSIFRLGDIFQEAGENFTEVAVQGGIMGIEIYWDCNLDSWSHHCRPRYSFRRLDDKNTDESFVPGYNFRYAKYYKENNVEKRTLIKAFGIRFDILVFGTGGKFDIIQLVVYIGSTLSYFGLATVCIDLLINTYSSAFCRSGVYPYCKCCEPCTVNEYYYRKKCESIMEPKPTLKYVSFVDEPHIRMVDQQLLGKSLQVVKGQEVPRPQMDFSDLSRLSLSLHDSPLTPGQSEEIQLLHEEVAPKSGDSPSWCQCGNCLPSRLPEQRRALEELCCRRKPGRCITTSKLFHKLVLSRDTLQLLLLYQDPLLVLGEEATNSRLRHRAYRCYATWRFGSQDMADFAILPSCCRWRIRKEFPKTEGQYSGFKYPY
Sequence of UniProt Q8WXD0 (whole entry, looked up): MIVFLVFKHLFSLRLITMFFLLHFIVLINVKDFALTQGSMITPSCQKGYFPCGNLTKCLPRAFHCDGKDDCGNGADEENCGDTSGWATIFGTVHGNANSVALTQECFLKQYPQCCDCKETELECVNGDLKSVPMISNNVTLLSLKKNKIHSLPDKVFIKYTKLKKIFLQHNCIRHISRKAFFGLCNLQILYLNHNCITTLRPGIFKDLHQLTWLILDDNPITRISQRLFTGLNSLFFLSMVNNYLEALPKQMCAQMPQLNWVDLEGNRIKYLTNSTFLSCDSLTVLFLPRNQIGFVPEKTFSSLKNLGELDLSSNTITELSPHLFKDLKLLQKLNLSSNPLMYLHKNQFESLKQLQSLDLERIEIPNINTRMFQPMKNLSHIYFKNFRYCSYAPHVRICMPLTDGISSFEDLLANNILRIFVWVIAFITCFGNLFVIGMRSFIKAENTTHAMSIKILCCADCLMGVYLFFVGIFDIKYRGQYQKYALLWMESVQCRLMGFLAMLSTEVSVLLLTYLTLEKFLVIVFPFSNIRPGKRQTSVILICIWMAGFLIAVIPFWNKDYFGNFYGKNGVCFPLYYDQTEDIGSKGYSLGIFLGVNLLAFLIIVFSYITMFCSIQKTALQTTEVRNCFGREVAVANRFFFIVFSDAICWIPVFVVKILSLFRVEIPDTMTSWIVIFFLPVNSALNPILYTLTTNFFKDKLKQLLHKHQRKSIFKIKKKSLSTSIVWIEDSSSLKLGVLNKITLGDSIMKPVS
Sequence of UniProt O88536 (whole entry, looked up): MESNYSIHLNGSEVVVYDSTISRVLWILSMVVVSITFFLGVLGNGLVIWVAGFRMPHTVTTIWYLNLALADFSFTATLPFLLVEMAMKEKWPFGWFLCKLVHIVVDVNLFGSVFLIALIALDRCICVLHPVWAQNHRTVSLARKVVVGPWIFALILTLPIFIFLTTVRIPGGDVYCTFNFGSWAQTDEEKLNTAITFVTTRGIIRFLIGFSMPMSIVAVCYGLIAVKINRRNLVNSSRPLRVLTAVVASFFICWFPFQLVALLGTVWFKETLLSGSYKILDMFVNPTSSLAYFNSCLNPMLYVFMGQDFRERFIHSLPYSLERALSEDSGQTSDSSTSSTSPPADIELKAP
Sequence of UniProt Q9HBX9 (whole entry, looked up): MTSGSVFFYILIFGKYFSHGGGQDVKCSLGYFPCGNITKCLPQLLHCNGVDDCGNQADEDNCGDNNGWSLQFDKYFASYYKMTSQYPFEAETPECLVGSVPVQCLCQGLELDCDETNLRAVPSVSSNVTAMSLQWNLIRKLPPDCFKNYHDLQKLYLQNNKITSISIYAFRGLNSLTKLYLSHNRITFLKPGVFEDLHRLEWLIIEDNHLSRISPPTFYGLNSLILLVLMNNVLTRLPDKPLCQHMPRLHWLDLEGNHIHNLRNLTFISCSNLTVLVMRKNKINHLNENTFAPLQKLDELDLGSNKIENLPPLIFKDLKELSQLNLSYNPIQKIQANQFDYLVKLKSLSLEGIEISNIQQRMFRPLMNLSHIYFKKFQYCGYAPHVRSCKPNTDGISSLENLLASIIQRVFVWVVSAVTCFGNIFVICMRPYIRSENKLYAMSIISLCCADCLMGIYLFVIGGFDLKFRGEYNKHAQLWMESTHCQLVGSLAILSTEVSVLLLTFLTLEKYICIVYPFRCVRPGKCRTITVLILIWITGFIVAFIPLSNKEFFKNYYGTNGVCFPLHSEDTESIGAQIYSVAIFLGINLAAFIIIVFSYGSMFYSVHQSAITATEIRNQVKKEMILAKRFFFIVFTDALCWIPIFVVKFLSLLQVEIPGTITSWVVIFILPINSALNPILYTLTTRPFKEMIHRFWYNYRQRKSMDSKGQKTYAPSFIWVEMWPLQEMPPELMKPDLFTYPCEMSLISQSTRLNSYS

Substance = CCCC[C@H](NC(=O)[C@H](CO)NC(=O)[C@H](C)NC(=O)[C@H](CO)NC(C)=O)C(=O)N[C@@H](CCC(=O)O)C(=O)N[C@@H](Cc1c[nH]cn1)C(=O)N[C@H](Cc1ccccc1)C(=O)N[C@@H](CCCNC(=N)N)C(=O)N[C@@H](Cc1c[nH]c2ccccc12)C(=O)NCC(=O)N[C@@H](CCCCN)C(=O)N1CCC[C@H]1C(=O)N[C@H](C(N)=O)C(C)C; target = Melanocortin receptor 5; EC50 = 0.085 ± 0.003 nM
Substance = heparin sodium; target = Small ribosomal subunit protein uS2, residues 2-220 (Rpsa, Mus musculus, UniProt P14206); assay = laminin binding, enhancer, indirect ELISA; EC50 = 35 ± 4 nM
Substance = CCCC[C@H](NC(=O)[C@H](CO)NC(=O)[C@H](Cc1ccc(O)cc1)NC(=O)[C@H](C)NC(C)=O)C(=O)N[C@@H](CCC(=O)O)C(=O)N[C@@H](Cc1c[nH]cn1)C(=O)N[C@H](Cc1ccccc1)C(=O)N[C@@H](CCCNC(=N)N)C(=O)N[C@@H](Cc1c[nH]c2ccccc12)C(=O)NCC(=O)N[C@@H](CCCCN)C(=O)N1CCC[C@H]1C(=O)N[C@H](C(N)=O)C(C)C; target = Melanocortin receptor 5; EC50 = 0.095 ± 0.01 nM
Substance = O=C(Nc1cccc(C(F)(F)F)c1)c1ccccc1NC(=O)C1CCCCC1; target = Relaxin receptor 1 (RXFP1, Homo sapiens, UniProt Q9HBX9); assay = cAMP, agonist, TR-FRET; EC50 = 3700 nM
Substance = CC1=NN(CC(=O)Nc2ccc(Br)cc2)C(=O)CC1c1ccccc1 (racemic); target = Formyl peptide receptor 2 (Mus musculus, UniProt O88536); assay = calcium signal, agonist; EC50 = 3500 nM
Substance = O=C(NO)c1cnc(NC2(c3ccccc3)CC2)nc1; target = MBLAC2 (Homo sapiens, UniProt Q68D91); assay = palmitoyl-CoA hydrolysis, inhibitor; conditions = added: [3H]palmitoyl-CoA; EC50 = 501 nM
Substance = CSCC[C@H](NC(=O)[C@H](CCC(=O)O)NC(=O)[C@@H]1CCCN1C(=O)[C@@H](NC(=O)[C@@H]1CCCN1)[C@@H](C)O)C(=O)N[C@@H](CCCNC(=N)N)C(=O)N[C@@H](CCC(=O)O)C(=O)N[C@@H](CCCCN)C(=O)N[C@@H](CC(C)C)C(=O)N[C@H]1CSSC[C@@H]2NC(=O)[C@@H](NC(=O)[C@H](Cc3ccc(O)cc3)NC(=O)[C@H](CCCNC(=N)N)NC(=O)[C@H](C)NC(=O)[C@@H]3CCCN3C(=O)[C@H](CC(N)=O)NC(=O)[C@@H](NC(=O)[C@H](C)NC(=O)[C@H](C)NC(=O)[C@H](C)N)[C@@H](C)O)CSSC[C@H](NC(=O)CNC(=O)[C@H](CO)NC(=O)[C@H](CC(C)C)NC2=O)C(=O)N[C@@H]([C@@H](C)O)C(=O)N[C@@H](CCC(N)=O)C(=O)N[C@@H](CCC(N)=O)C(=O)N[C@@H](CC(=O)O)C(=O)N[C@@H](CC(C)C)C(=O)N[C@@H](CC(C)C)C(=O)N[C@@H]([C@@H](C)O)C(=O)N[C@@H](CC(C)C)C(=O)N[C@H](C(=O)N2CCC[C@H]2C(=O)N[C@@H](Cc2ccc(O)cc2)C(=O)O)CSSC[C@@H](C(=O)NCC(=O)NCC(=O)N2CCC[C@H]2C(=O)N[C@@H](CCCNC(=N)N)C(=O)N[C@@H](Cc2c[nH]c3ccccc23)C(=O)N[C@@H](CO)C(=O)N[C@H](C(=O)N[C@@H](CCC(=O)O)C(=O)N[C@@H](C)C(=O)O)[C@@H](C)O)NC(=O)[C@H](C(C)C)NC(=O)[C@H](CCCNC(=N)N)NC(=O)[C@H](C(C)C)NC(=O)[C@H](CC(C)C)NC(=O)[C@H](C)NC(=O)[C@H](CCCNC(=N)N)NC(=O)[C@H](C(C)C)NC(=O)[C@H](Cc2ccccc2)NC(=O)[C@H](Cc2c[nH]cn2)NC(=O)[C@H](Cc2c[nH]cn2)NC(=O)CNC1=O; target = Relaxin receptor 2 (RXFP2, Homo sapiens, UniProt Q8WXD0); assay = cAMP production, agonist, CAMYEL BRET; test system = HEK293 transfected; conditions = 45 min, 37 °C; EC50 = 0.263 nM
Substance = CCCCC[C@@](C)(O)[C@H]1CC[C@H]2[C@@H]3CC=C4C[C@@H](O)CC[C@]4(C)[C@H]3CC[C@@]21C; target = Protein smoothened (Smo, Mus musculus, UniProt P56726, G115S); assay = Hh pathway activation, agonist, measured: Gli1 mRNA; test system = Smo-null cells rescued with Smo; EC50 = 1300 nM
Substance = CCCCCOC(C)=O; target = Olfr124 (Mus musculus, UniProt Q0VEF0); assay = transduction current, agonist, perforated patch clamp; test system = septal organ olfactory neurons, mouse; conditions = pH 7.4, 25 °C; EC50 = 1200 ± 800 nM
Substance = FC(F)(F)c1cc(Nc2nc(Cl)nc(Cl)n2)cc(C(F)(F)F)c1; target = CD209 antigen (CD209, Homo sapiens, UniProt Q9NNX6); assay = binding, grating-coupled interferometry; test system = mannose-PEG3 chip; conditions = overnight, Tris quench; EC50 = 100000 nM
Substance = O=C(NN=Cc1ccccc1)c1ccccc1O; target = ESRRG; assay = reporter gene, agonist, luciferase reporter; test system = HEK293 transfected; EC50 = 468 nM
Substance = Nc1ccc(I)cc1-c1nc2ccccc2n(Cc2ccccc2[N+](=O)[O-])c1=O; target = CFTR (Homo sapiens, UniProt P13569); assay = ion flux, activator, fluorescence; EC50 = > 25000 nM
Substance = CCCC[C@H](NC(=O)[C@H](CO)NC(=O)[C@H](Cc1ccc(O)cc1)NC(=O)[C@H](CO)NC(C)=O)C(=O)N[C@@H](CCC(=O)O)C(=O)N[C@@H](Cc1c[nH]cn1)C(=O)N[C@H](Cc1ccccc1)C(=O)N[C@@H](CCCNC(=N)N)C(=O)N[C@@H](Cc1c[nH]c2ccccc12)C(=O)N[C@@H](C)C(=O)N[C@@H](CCCCN)C(=O)N1CCC[C@H]1C(=O)N[C@H](C(N)=O)C(C)C; target = Melanocortin receptor 5; EC50 = 0.11 ± 0.02 nM
Substance = COc1ccc(Cl)cc1Cn1nc(-c2sc(NC(=O)C(C)(C)C)nc2C)cc1C(=O)NCCO; target = CFTR (Homo sapiens, UniProt P13569, del508-508); assay = iodide influx, corrector, YFP quenching; test system = FRT expressing ΔF508-CFTR and YFP-H148Q/I152L; conditions = added: forskolin 20 µM + genistein 50 µM; EC50 = 3000 nM
Substance = CCCC[C@H](NC(=O)[C@H](CO)NC(=O)[C@H](Cc1ccc(O)cc1)NC(=O)[C@H](CO)NC(C)=O)C(=O)N[C@@H](CCC(=O)O)C(=O)N[C@@H](Cc1c[nH]cn1)C(=O)N[C@@H](C)C(=O)N[C@@H](CCCNC(=N)N)C(=O)N[C@@H](Cc1c[nH]c2ccccc12)C(=O)NCC(=O)N[C@@H](CCCCN)C(=O)N1CCC[C@H]1C(=O)N[C@H](C(N)=O)C(C)C; target = Melanocortin receptor 5; EC50 = 25 ± 11 nM
Substance = CC1=CC(=O)c2ccccc2C1=O; target = UbiA prenyltransferase domain-containing protein 1 (UBIAD1, Homo sapiens, UniProt Q9Y5Z9, G186R); assay = vitamin K-dependent carboxylation, substrate; conditions = cell-based, added: FIXgla-PC reporter; EC50 = 221 nM
Substance = CCCC[C@H](NC(=O)[C@H](CO)NC(=O)[C@H](Cc1ccc(O)cc1)NC(=O)[C@H](CO)NC(C)=O)C(=O)N[C@@H](CCC(=O)O)C(=O)N[C@@H](Cc1c[nH]cn1)C(=O)N[C@H](Cc1ccccc1)C(=O)N[C@@H](CCCNC(=N)N)C(=O)N[C@@H](C)C(=O)NCC(=O)N[C@@H](CCCCN)C(=O)N1CCC[C@H]1C(=O)N[C@H](C(N)=O)C(C)C; target = Melanocortin receptor 5; EC50 = 31 ± 3.34 nM
Substance = O=C(NN=Cc1ccc2ccccc2n1)c1ccccc1; target = ESRRG; assay = reporter gene, agonist, luciferase reporter; test system = HEK293 transfected; EC50 = 836 nM
Substance = CCCC[C@H](NC(=O)[C@H](CO)NC(=O)[C@H](Cc1ccc(O)cc1)NC(=O)[C@H](CO)NC(C)=O)C(=O)N[C@@H](CCC(=O)O)C(=O)N[C@@H](Cc1c[nH]cn1)C(=O)N[C@H](Cc1ccccc1)C(=O)N[C@@H](CCCNC(=N)N)C(=O)N[C@@H](Cc1c[nH]c2ccccc12)C(=O)NCC(=O)N[C@@H](C)C(=O)N1CCC[C@H]1C(=O)N[C@H](C(N)=O)C(C)C; target = Melanocortin receptor 5; EC50 = 0.094 ± 0.005 nM
Substance = CC1=C(/C=C/C(C)=C\C=C\C(C)=C\C=O)C(C)(C)CCC1; target = Melanopsin (OPN4, Homo sapiens, UniProt Q9UHM6); assay = light-induced calcium release, FLIPR Fluo-4; test system = CHO cells expressing Opn4; conditions = light-exposed cells, added immediately before light; EC50 = 20 ± 9 nM
Substance = CSCC[C@H](NC(=O)[C@H](CO)NC(=O)[C@H](Cc1ccc(O)cc1)NC(=O)[C@H](CO)NC(C)=O)C(=O)N[C@@H](CCC(=O)O)C(=O)N[C@@H](Cc1c[nH]cn1)C(=O)N[C@@H](Cc1ccccc1)C(=O)N[C@@H](CCCNC(=N)N)C(=O)N[C@@H](Cc1c[nH]c2ccccc12)C(=O)NCC(=O)N[C@@H](C)C(=O)N1CCC[C@H]1C(=O)N[C@H](C(N)=O)C(C)C; target = Melanocortin receptor 5; EC50 = 7.1 ± 3.13 nM
Substance = Nc1ncnc2c1ncn2[C@@H]1O[C@H](COP(=O)(O)OP(=O)(O)OP(=O)(O)O)[C@@H](OC(=O)c2ccc(C(=O)c3ccccc3)cc2)[C@H]1O; target = P2X purinoceptor 7 (P2rx7, Mus musculus, UniProt Q9Z1M0); assay = agonist; test system = mouse cells; EC50 = 197000 ± 5100 nM

Repeated from above:
Substance = CCCC[C@H](NC(=O)[C@H](CO)NC(=O)[C@H](Cc1ccc(O)cc1)NC(=O)[C@H](CO)NC(C)=O)C(=O)N[C@@H](CCC(=O)O)C(=O)N[C@@H](Cc1c[nH]cn1)C(=O)N[C@H](Cc1ccccc1)C(=O)N[C@@H](CCCNC(=N)N)C(=O)N[C@@H](Cc1c[nH]c2ccccc12)C(=O)N[C@@H](C)C(=O)N[C@@H](CCCCN)C(=O)N1CCC[C@H]1C(=O)N[C@H](C(N)=O)C(C)C; target = Melanocortin receptor 5; EC50 = 0.11 ± 0.02 nM
Substance = COc1ccc(Cl)cc1Cn1nc(-c2sc(NC(=O)C(C)(C)C)nc2C)cc1C(=O)NCCO; target = CFTR (Homo sapiens, UniProt P13569, del508-508); assay = iodide influx, corrector, YFP quenching; test system = FRT expressing ΔF508-CFTR and YFP-H148Q/I152L; conditions = added: forskolin 20 µM + genistein 50 µM; EC50 = 3000 nM
Substance = CCCC[C@H](NC(=O)[C@H](CO)NC(=O)[C@H](Cc1ccc(O)cc1)NC(=O)[C@H](CO)NC(C)=O)C(=O)N[C@@H](CCC(=O)O)C(=O)N[C@@H](Cc1c[nH]cn1)C(=O)N[C@@H](C)C(=O)N[C@@H](CCCNC(=N)N)C(=O)N[C@@H](Cc1c[nH]c2ccccc12)C(=O)NCC(=O)N[C@@H](CCCCN)C(=O)N1CCC[C@H]1C(=O)N[C@H](C(N)=O)C(C)C; target = Melanocortin receptor 5; EC50 = 25 ± 11 nM
